Published values gathered from unrelated publications.
Lines come from different studies, so protocols differ. Numbers after ± are the reported error.

`COc1cc2oc(-c3ccc(F)cc3)cc(=O)c2c(O)c1O`: “log protonation constant” 9.87 (spectrophotometric titration; methanol/water 80/20 w/w; 25.0 °C, ionic strength 0.1 M, 6-OH group).
The log k of `COc1cc(/C=N/N2C(=O)c3ccccc3NC2c2cc(OC)c(O)c(OC)c2)cc(OC)c1O` (centres unmarked) is reported as -0.605 (RP-HPLC).
With `Cc1cccc(-c2cccc(C)n2)n1.Cc1cccc(-c2cccc(C)n2)n1.[Cl-].[Cl-].[Ru+2].c1ccc(-c2ccnc3c2ccc2c(-c4ccccc4)ccnc23)cc1` the log P was -1.27 ± 0.03 (shake flask; n-octanol/water; dark).
For `COc1cc(/C=N/N2C(=O)c3ccccc3NC2c2cc(OC)c(O)c([N+](=O)[O-])c2)cc([N+](=O)[O-])c1O` (centres unmarked), the log k was 0.447 (RP-HPLC).
`C[O][Pt-2]([NH3+])([NH3+])([Cl])([Cl])[O]C(=O)CCC(=O)OCCO` has a log kw of 0.22 ± 0.01 (RP-HPLC, C18 column; methanol/aqueous formic acid; 25 °C, extrapolated to 100% water).
With `COc1cc(-c2nc3ccccc3s2)cc(CN2CCN(CC(=O)OC(C)(C)C)CCN(CC(=O)OC(C)(C)C)CC2)c1O` the log D was 0.95 ± 0.07 (octanol/water; 64Cu complex).
The log Ka1 of `O=c1c(O)cccn1CCCN1CCN(CCCn2cccc(O)c2=O)CC1` is reported as -3.8 ± 0.1 (spectrophotometric titration; 25 °C, ligand protonation, ionic strength 0.10 M).
For `COc1cc2oc(-c3ccc(C(F)(F)F)cc3)cc(=O)c2c(O)c1O`, “log stability constant” read 4.4 (spectrophotometric titration; methanol-water; pH 7.4, 25.0 °C, added: Fe(III)-NTA).
For `c1ccc(COc2cc3nc(c2)CNCCNCCNC3)cc1`, the log K2 was 7.76 (pH-potentiometric titration; protonation constant, I 0.15 M NaCl, 298 K).
For `COc1cc(OC)cc(C2=C3C(C)=C(I)C(C)=[N+]3[B-](F)(F)n3c(/C=C/c4c[nH]c5ccccc45)c(I)c(C)c32)c1`, “log molar absorptivity” read 4.47 M⁻¹ cm⁻¹ (DMSO).
For `COc1cc2oc(-c3ccc(C(F)(F)F)cc3F)cc(=O)c2c(O)c1O`, “log protonation constant” read 10.2 (spectrophotometric titration; methanol/water 80/20 w/w; 25.0 °C, ionic strength 0.1 M, 6-OH group).
Under “log membrane partition coefficient”, `CC(C)CC(=O)C(=O)C(O)CO` (centres unmarked) is recorded as 1.91.
With `Oc1cc2nc(c1)CNCc1cc(O)cc(n1)CNC2` the log K5 was 0.98 (potentiometric titration; 0.15 M NaCl; 298 K, protonation constant).
Under “log molar absorptivity”, `COCCOCCOCCOc1ccc(/C=C/c2c(I)c(C)c3n2[B-](F)(F)[N+]2=C(C)C(I)=C(C)C2=C3c2cc(OC)cc(OC)c2)cc1` is recorded as 4.7 M⁻¹ cm⁻¹ (THF).
For `[Cl][Pd-2]1([Cl])[N+](=Cc2ccc[nH]2)Cc2cccc[n+]21`, the log P was 1.269 ± 0.004 (shake-flask; n-octanol/water).
`COc1cc(OC)cc(C2=C3C(C)=C(I)C(C)=[N+]3[B-](F)(F)n3c(/C=C/c4c[nH]c5ccc([N+](=O)[O-])cc45)c(I)c(C)c32)c1`: “log molar absorptivity” 4.41 M⁻¹ cm⁻¹ (dichloromethane).
`FC(F)(F)c1ccnc(-c2cc(C(F)(F)F)ccn2)c1.FC(F)(F)c1ccnc(-c2cc(C(F)(F)F)ccn2)c1.[Cl-].[Cl-].[Ru+2].c1csc(-c2nc3c4cccnc4c4ncccc4c3[nH]2)c1`: “log D octanol/water” “negative” (shake-flask; 1-octanol/phosphate buffer; pH 7.4, chloride salt).
With `COC(=O)c1ccccc1-c1c2ccc(=O)cc-2oc2cc(OCCCCC[P+](c3ccccc3)(c3ccccc3)c3ccccc3)ccc12` the log P was 0.42 ± 0.04 (shake-flask, HPLC; 1-octanol/water).
`Oc1cccc(-c2cccc(O)n2)n1.[Cl-].[Cl-].[Ru+2].c1cnc2c(c1)ccc1cccnc12.c1cnc2c(c1)ccc1cccnc12` gave a log D of 1.3 (octanol/buffer; monoprotic acid form).
`NC(=O)CN1CCNC(=O)c2cccc(n2)C(=O)NCCN(CC(N)=O)CCN(CC(N)=O)CC1`: “log K (stepwise protonation)” 7 (potentiometric titration; water, 0.1 M KNO3; 25.0 °C, species HL).
`CCNC(=O)C1OC(n2cnc3c(NCC(c4ccccc4)c4ccccc4)nc(C(=O)NCCNC(=O)NC4CCN(c5ccccn5)CC4)nc32)C(O)C1O` (centres unmarked) gave a log kIAM of 2.38 (IAM chromatography; pH 7.4).
`O=C(O)CN(CCNC(=O)c1cccc(C(=O)NCCN(CC(=O)O)CC(=O)O)n1)CC(=O)O`: “log β (Pb2+ complex stability)” 12.9 (potentiometric titration; water, 0.1 M KNO3; 25.0 °C, complex species LPb, added: Pb(NO3)2).
`Oc1cccc(-c2cccc(O)n2)n1.[Cl-].[Cl-].[Ru+2].c1cnc2c(c1)c1c(c3cccnc32)OCCO1.c1cnc2c(c1)c1c(c3cccnc32)OCCO1` gave a log D of 1.5 (octanol/buffer; monoprotic acid form).
The log kIAM of `CCNC(=O)C1OC(n2cnc3c(N)nc(C(=O)NCCNC(=O)NC4CCN(c5ccccn5)CC4)nc32)C(O)C1O` (centres unmarked) is reported as 0.86 (IAM chromatography; pH 7.4).
`COC(=O)CCC(=O)[O][Pt-2]1([OH])([Cl])([Cl])[NH2+]CC[N+]1(C)C` has a log kw of 0.94 ± 0.01 (RP-HPLC, C18 column; methanol/aqueous formic acid; 25 °C, extrapolated to 100% water).
For `COc1cc(OC)cc(C2=C3C(C)=C(I)C(C)=[N+]3[B-](F)(F)n3c(/C=C/c4cccs4)c(I)c(C)c32)c1`, “log molar absorptivity” read 4.06 M⁻¹ cm⁻¹ (THF).
The log P of `[CH3][Pd-2]([Cl])([N+](=Cc1ccc[nH]1)Cc1ccccc1)[N+](=Cc1ccc[nH]1)Cc1ccccc1` is reported as 1.395 ± 0.0065 (shake-flask; n-octanol/water).
The log K1 of `Oc1ccc2nc1CNCCNCCNC2` is reported as 11.2 (pH-potentiometric titration; protonation constant, I 0.15 M NaCl, 298 K).
Under “log molar absorptivity”, `CCOC(=O)c1[nH]c(C)c(/C=C/c2c(I)c(C)c3n2[B-](F)(F)[N+]2=C(C)C(I)=C(C)C2=C3c2cc(OC)cc(OC)c2)c1C` is recorded as 4.9 M⁻¹ cm⁻¹ (THF).
`Br.Br.O=c1c(O)cccn1CCN1CCN(CCn2cccc(O)c2=O)CC1` gave a log Ka1 of -3.7 ± 0.1 (spectrophotometric titration; 25 °C, ligand protonation, ionic strength 0.10 M).
`COc1ccc(NC(=O)[C@H](CCCCN)NC(=O)c2cc(NC(=O)[C@H](CCCCN)NC(=O)c3cc(NC(=O)[C@H](CCCCN)NC(=O)c4cc(NC(=O)[C@@H](N)CCCCN)ccc4OC)ccc3OC)ccc2OC)cc1C(=O)NCCC(=O)O` — result for “log association constant”: 21.8 (UV-vis λmax shift; TBS; pH 7.4, monomer-hexamer, K in M^-5).
For `COc1cc(OC)cc(C2=C3C(C)=C(I)C(/C=C/c4c[nH]c5ccccc45)=[N+]3[B-](F)(F)n3c(/C=C/c4c[nH]c5ccccc45)c(I)c(C)c32)c1`, “log molar absorptivity” read 4.54 M⁻¹ cm⁻¹ (dichloromethane).
`CCNC(=O)C1OC(n2cnc3c(NCC(c4ccccc4)c4ccccc4)nc(NCCNC(=O)Nc4ccncc4)nc32)C(O)C1O` (centres unmarked) gave a log kIAM of 2.56 (IAM chromatography; pH 7.4).
For `O=C1c2ccccc2NC(c2ccccc2O)N1/N=C/c1ccccc1O` (centres unmarked), the log k was 0.315 (RP-HPLC).
`CCNC(=O)C1OC(n2cnc3c(NCC(c4ccccc4)c4ccccc4)nc(NCCc4ccc(CC[N+](C)(C)C)cc4)nc32)C(O)C1O` (centres unmarked) gave a log kIAM of 2.74 (IAM chromatography; pH 7.4).
Under “log association constant”, `COc1ccc(NC(=O)[C@H](CCCCN)NC(=O)c2cc(NC(=O)[C@H](CCCCN)NC(=O)c3cc(NC(=O)[C@H](CCCCN)NC(=O)c4cc(NC(=O)[C@@H](N)CCCCN)ccc4OC)ccc3OC)ccc2OC)cc1C(N)=O` is recorded as 19.7 (UV-vis λmax shift; Tris 50 mM; pH 7.4, monomer-hexamer global fit, added: NaCl 0.15 M).
For `O=C(O)[C@@H]1C[C@@H](O)CN1C(=O)[C@@H]1CCCN1`, the log beta was 29.5 (potentiometric titration; 25 °C, MA3 complex, added: Fe(III)).
With `CCOC(=O)CN1CCN(CC(=O)OCC)CCN(Cc2cc(-c3nc4ccccc4s3)cc(OC)c2O)CC1` the log D was 0.9 ± 0.03 (octanol/water; 64Cu complex).
`COc1cc(OC)cc(C2=C3C(C)=C(I)C(/C=C/c4c[nH]c5ccc([N+](=O)[O-])cc45)=[N+]3[B-](F)(F)n3c(/C=C/c4c[nH]c5ccc([N+](=O)[O-])cc45)c(I)c(C)c32)c1` — result for “log molar absorptivity”: 4.79 M⁻¹ cm⁻¹ (THF).
With `CCNC(=O)C1OC(n2cnc3c(NC(CC)CC)nc(NCCNC(=O)Nc4ccncc4)nc32)C(O)C1O` (centres unmarked) the log kIAM was 2.08 (IAM chromatography; pH 7.4).
With `C[O][Pt-2]([NH3+])([NH3+])([Cl])([Cl])[O]C(=O)CCC(=O)O` the log kw was 0.39 ± 0.01 (RP-HPLC, C18 column; methanol/aqueous formic acid; 25 °C, extrapolated to 100% water).
Under “log molar absorptivity”, `CCOC(=O)c1[nH]c(C)c(/C=C/C2=[N+]3C(=C(c4cc(OC)cc(OC)c4)c4c(C)c(I)c(/C=C/c5c(C)[nH]c(C(=O)OCC)c5C)n4[B-]3(F)F)C(C)=C2I)c1C` is recorded as 4.86 M⁻¹ cm⁻¹ (dichloromethane).
For `Br.Br.Br.O=c1c(O)cccn1CCN1CCN(CCn2cccc(O)c2=O)CCN(CCn2cccc(O)c2=O)CC1`, the log Ka1 was -3.79 ± 0.07 (spectrophotometric titration; 25 °C, ligand protonation, ionic strength 0.10 M).
`O=C(/C=C/c1ccc(O)c(O)c1)NCCCCCCCC[P+](c1ccccc1)(c1ccccc1)c1ccccc1` has a log Kd of 1.79 ± 0.56 (spectrophotometry; sodium deoxycholate micelles; 37 °C).

Some of these lines once more:
For `COc1cc2oc(-c3ccc(C(F)(F)F)cc3)cc(=O)c2c(O)c1O`, “log stability constant” read 4.4 (spectrophotometric titration; methanol-water; pH 7.4, 25.0 °C, added: Fe(III)-NTA).
With `CCNC(=O)C1OC(n2cnc3c(NC(CC)CC)nc(NCCNC(=O)Nc4ccncc4)nc32)C(O)C1O` (centres unmarked) the log kIAM was 2.08 (IAM chromatography; pH 7.4).
With `CCOC(=O)CN1CCN(CC(=O)OCC)CCN(Cc2cc(-c3nc4ccccc4s3)cc(OC)c2O)CC1` the log D was 0.9 ± 0.03 (octanol/water; 64Cu complex).
`O=C(/C=C/c1ccc(O)c(O)c1)NCCCCCCCC[P+](c1ccccc1)(c1ccccc1)c1ccccc1` has a log Kd of 1.79 ± 0.56 (spectrophotometry; sodium deoxycholate micelles; 37 °C).
The log kIAM of `CCNC(=O)C1OC(n2cnc3c(N)nc(C(=O)NCCNC(=O)NC4CCN(c5ccccn5)CC4)nc32)C(O)C1O` (centres unmarked) is reported as 0.86 (IAM chromatography; pH 7.4).
